Published values gathered from unrelated publications.
Every numbered part comes from another study and shows a few of its results, in no order. Substitutions count along the parent as printed.

Block 1 — technique: EMSA with sequencing; molecule type: double-stranded DNA, one strand shown; sample: in vitro; tested at: 10 and 20 nM; relative to: negative control set to 0; reading: higher = stronger binding
Target: Hepatocyte nuclear factor 3-alpha (Foxa1, Mus musculus, UniProt P35582, residues 1-468, full length assumed)
Sequence of UniProt P35582 (whole entry, looked up): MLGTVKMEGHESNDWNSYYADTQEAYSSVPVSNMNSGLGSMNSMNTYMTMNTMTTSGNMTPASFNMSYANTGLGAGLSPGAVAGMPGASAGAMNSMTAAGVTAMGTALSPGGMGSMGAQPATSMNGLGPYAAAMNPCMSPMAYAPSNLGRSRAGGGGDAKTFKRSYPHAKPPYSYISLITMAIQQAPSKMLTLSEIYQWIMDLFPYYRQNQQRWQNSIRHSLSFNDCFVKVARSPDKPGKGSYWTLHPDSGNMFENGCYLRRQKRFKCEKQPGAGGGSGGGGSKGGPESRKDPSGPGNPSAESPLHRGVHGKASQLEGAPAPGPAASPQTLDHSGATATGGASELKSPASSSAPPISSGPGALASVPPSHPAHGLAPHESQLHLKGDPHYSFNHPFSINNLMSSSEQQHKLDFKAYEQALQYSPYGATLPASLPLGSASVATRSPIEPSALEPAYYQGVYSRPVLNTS
Setting: whole designed probe, mean of two concentrations, ends assumed
All sequences stand within: GTGAGCGGTGCCCATTGATGGGGAAC … TTTCACTGGGATCGTGGGGAC
| Sequence | normalised bound fraction |
| --- | --- |
| CAGCTGGAATGCCTGGCGGAGGCTCCGGTGTCAAGAGCCTGAGAACCTGAGAACCCACCCGAGGCCCCCGCCAGGCAGCGCCGCCAGCAGATTTATTTACTCTGGGGCCCTATCTCCGCGCCATCGGGCCAGATATTTGCCCTGGCGGGATCCAGGGAAACTGCGGTTTTTGTTATGATAGCTGGGGCAGGGA | 0.348 ratio |
| AGTTGCAGTCCAGGAAAAAGAAGGCACAAACACTGCTGATCAAATATTACTAAAGCTTTTATGGACTCTTGAACCTCATTTTCCCTCCCAAAAGTACTCTAGACACACTTCATTCTTACTCTGTTTATGCCTCTCTGTCTAATAGAAACTTCACTTCTGACTCCAGCTTTGTCTAATTATTAACACAGAGAGG | 0.0577 ratio |
| TCGGCCAGCCTGGCTTCTGCGCCCCGCCAGGAGGTCGCGGAGCGGAGCGCGGCCAGGAAGTGAGCTGAGAGTGACAGCTCCCCCCACGCTGTTTGTTTATTCTCTCCACACACTGGCTCTATGACTCATTCTCTTTCTTTCGGGAGGAGGGGAGAAAGGAGCGGGAGGGCGGGCGGGCAGGGGAGAGGCAGGC | 0.284 ratio |
| ACATTCTTATAACCTATATGACATTATATTAAATTCCATTTAAAACCGTAGCATAAGAAGCATTGTATCTGGCACAAAAATACAAAGGGATTTTGTTTACTGAGAGACAAGATAAACTATATACTAGAACTAAAAGCTCTATAAAATATTTAATGAAAAATTCTGTAGTAATTTTATGTGAGGTTTTTTAAAC | 0.193 ratio |
| AAATTGAATAACACACGTAATTGTGCCTGACATAGATATATACATTTTATATATTATTCTTTCTATATAATTTACATGTATAGAATAATATATATGTTTACATTGTATATATTTATATTTTATATAATATGTTATAACAAATATTTATATCATATATAATATGTATTTGTATGTATAATTTATATGGAATTTA | 0.518 ratio |

Block 2 — technique: protein binding microarray; molecule type: double-stranded DNA, one strand shown; sample: in vitro; tested at: not given; relative to: not given; reading: higher = stronger binding
Target: Histone acetyltransferase KAT6A, winged helix 2, GST fusion (KAT6A, Homo sapiens, UniProt Q92794, residues 85-181)
Setting: 8-mer, flanks averaged, mean of 2 arrays, mostly near background
Residues (chain): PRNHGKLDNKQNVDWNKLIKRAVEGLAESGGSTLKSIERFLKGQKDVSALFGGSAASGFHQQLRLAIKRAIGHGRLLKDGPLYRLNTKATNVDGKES
| Sequence | E-score |
| --- | --- |
| AGCCCTAA | -0.103 |
| GACCCCTC | -0.0621 |
| ATGTAACC | -0.109 |
| CGTTGACC | -0.0641 |
| CCTTGCTC | 0.0562 |
| ACAGCCAT | -0.0626 |
| CGTGCAGA | -0.144 |
| CAGAACCC | -0.0558 |
| AGTATCAT | 0.0206 |
| AGGTCTGC | -0.04 |
| ACGCGCAT | -0.0101 |
| TTCTGAAA | 0.0301 |
| CACAAGCG | -0.00448 |
| AGGCTTAT | -0.039 |
| ACACGCGT | -0.0286 |
| CACCCGGA | 0.192 |
| CAATTCGA | -0.0712 |

Block 3 — technique: aptamer microarray, sandwich; molecule type: DNA with 2'F-ANA; sample: in vitro; tested at: 200 nM; with: Cy3 exosite-II aptamer, 400 nM; reading: higher = stronger binding; sequence: GGTTGGTGTGGTTGG
Target: Prothrombin, mature alpha-thrombin (F2, Homo sapiens, UniProt P00734)
Setting: whole 15-mer aptamer, many near background
| Modification | mean fluorescence intensity [a.u.] |
| --- | --- |
| 2'F-ANA at 1 4 5 6 7 12 | 116 |
| 2'F-ANA at 2 3 7 10 14 | 393 |
| 2'F-ANA at 2 3 5 7 9 13 14 15 | 50.6 |
| 2'F-ANA at 1 2 3 4 7 9 10 11 12 13 | 69.9 |
| 2'F-ANA at 5 9 13 14 | 62.1 |
| 2'F-ANA at 1 2 6 7 8 9 10 11 15 | 54.5 |
| 2'F-ANA at 3 8 9 10 12 | 707 |
| 2'F-ANA at 4 6 7 8 12 14 | 148 |
| 2'F-ANA at 1 2 5 9 10 12 14 | 62.2 |
| 2'F-ANA at 2 3 4 5 9 13 14 15 | 109 |
| 2'F-ANA at 1 2 4 6 8 11 12 14 15 | 60.4 |
| 2'F-ANA at 1 4 5 7 8 9 12 13 | 73.6 |
| 2'F-ANA at 1 2 3 5 7 8 9 10 12 14 15 | 136 |
| 2'F-ANA at 1 2 4 5 8 11 14 15 | 45.9 |
| 2'F-ANA at 1 5 7 8 11 14 15 | 55.7 |
| 2'F-ANA at 2 4 7 8 10 11 14 15 | 61.5 |
| 2'F-ANA at 3 4 6 7 8 11 13 15 | 514 |
| 2'F-ANA at 2 3 5 6 7 9 11 12 | 152 |
| 2'F-ANA at 2 3 4 5 7 9 10 12 | 86.1 |
| 2'F-ANA at 2 6 7 8 9 10 13 | 129 |
| 2'F-ANA at 1 2 4 6 7 8 9 11 12 | 238 |
| 2'F-ANA at 2 3 4 6 9 10 11 14 15 | 173 |
| 2'F-ANA at 2 3 5 6 8 14 15 | 59 |
| 2'F-ANA at 1 2 4 5 6 7 10 11 15 | 48 |
| 2'F-ANA at 1 2 3 4 10 11 12 | 72.7 |

Block 4 — target: CCNA1, cyclin fold, Cln2 fusion (human); technique: yeast growth competition, sequencing; sample: yeast; setting: strong parent motif; relative to: not given; reading: higher = stronger binding
Parent: RBL2 docking peptide (human); STTRRRLFVENDS; partner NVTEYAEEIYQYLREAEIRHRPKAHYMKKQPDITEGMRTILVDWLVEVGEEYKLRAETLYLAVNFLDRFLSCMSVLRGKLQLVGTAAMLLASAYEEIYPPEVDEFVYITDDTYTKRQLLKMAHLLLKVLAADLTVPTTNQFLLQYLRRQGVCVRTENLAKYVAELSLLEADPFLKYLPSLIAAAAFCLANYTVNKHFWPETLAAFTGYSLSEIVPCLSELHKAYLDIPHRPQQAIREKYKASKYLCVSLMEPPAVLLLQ
| Substitution | normalised enrichment score |
| --- | --- |
| STLRRRLFVENDS [T3L] | 0.289 |
| STTRRRLEVENDS [F8E] | 0.434 |
| STTRRRLFVENDV [S13V] | 0.651 |
| NTTRRRLFVENDS [S1N] | 0.609 |
| STARRRLFVENDS [T3A] | 0.495 |
| STTRRRLFVENDH [S13H] | 0.6 |
| STTRRRLFVINDS [E10I] | 0.314 |
| STTRRRLFVEWDS [N11W] | 0.489 |
| GTTRRRLFVENDS [S1G] | 0.725 |
| STTRRRLMVENDS [F8M] | 0.098 |
| STTRRRLFVESDS [N11S] | 0.78 |
| STTRRRLKVENDS [F8K] | 0.256 |
| STTRRRLFVENES [D12E] | 0.434 |
| STTYRRLFVENDS [R4Y] | 0.387 |
| SPTRRRLFVENDS [T2P] | 0.407 |
| STTRRVLFVENDS [R6V] | 0.712 |
| STTRRRLFVWNDS [E10W] | 0.348 |
| STTRRRLFVCNDS [E10C] | 0.386 |
| STTRRRLLVENDS [F8L] | 0.409 |
| STTRRKLFVENDS [R6K] | 0.428 |
| STTRRRLFVENDY [S13Y] | 0.46 |
| STTRRRLFVGNDS [E10G] | 0.301 |
| STTRRALFVENDS [R6A] | 0.556 |
| STTRRRLFVDNDS [E10D] | 0.984 |
| STTRRRLFVENDL [S13L] | 0.683 |

Block 5 — technique: protein-binding microarray; molecule type: double-stranded DNA, one strand shown; sample: in vitro; tested at: not given; reading: higher = stronger binding
Target: Protein C-ets-1 (ETS1, Homo sapiens, UniProt P14921, residues 1-441, full length assumed)
Setting: k-mer, scored over probes, only values ≥0.25
Construct (chain): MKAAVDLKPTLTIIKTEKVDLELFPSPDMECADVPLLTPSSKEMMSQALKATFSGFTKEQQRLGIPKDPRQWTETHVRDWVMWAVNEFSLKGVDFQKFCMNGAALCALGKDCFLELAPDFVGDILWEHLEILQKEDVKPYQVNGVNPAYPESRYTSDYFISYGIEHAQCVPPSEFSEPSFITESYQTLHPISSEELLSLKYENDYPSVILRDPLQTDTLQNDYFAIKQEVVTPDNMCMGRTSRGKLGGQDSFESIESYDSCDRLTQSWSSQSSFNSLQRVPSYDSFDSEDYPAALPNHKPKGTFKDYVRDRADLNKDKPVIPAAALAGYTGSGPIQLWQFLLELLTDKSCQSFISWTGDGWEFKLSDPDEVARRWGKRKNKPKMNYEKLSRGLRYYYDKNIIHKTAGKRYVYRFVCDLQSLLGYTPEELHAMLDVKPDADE
| Sequence | E-score |
| --- | --- |
| TGAGGAAA | 0.316 |
| CGGACATC | 0.364 |
| ACTTCCCT | 0.389 |
| AGCGGATG | 0.466 |
| ACCATCCG | 0.404 |
| GTGGCGGA | 0.385 |
| ATCCTGCC | 0.371 |
| GGAAGCAC | 0.396 |
| GGAGGGGA | 0.314 |
| AGGCGGGG | 0.252 |
| CCCTTCCG | 0.469 |
| GCACCGGA | 0.458 |
| ACAACGGA | 0.323 |
| ATCCGGAG | 0.433 |
| GATGTGAC | 0.35 |

Block 6 — technique: RNA Bind-n-Seq; molecule type: RNA; sample: in vitro; tested at: 365 nM; relative to: no-protein control; reading: higher = stronger binding
Target: RNA binding protein fox-1 homolog 2, RRM domain, GST-SBP tag (RBFOX2, Homo sapiens, UniProt O43251-10, residues 100-194)
Setting: natural RNA segment, single round, ends assumed
All sequences stand within: GGGAGUUCUACAGUCCGACGAUC … UGGAAUUCUCGGGUGCCAA
Construct (chain): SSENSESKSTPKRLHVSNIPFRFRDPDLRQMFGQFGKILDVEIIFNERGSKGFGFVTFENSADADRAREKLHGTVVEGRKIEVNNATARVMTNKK
| Sequence | RBNS enrichment (R) |
| --- | --- |
| CCCUGACAUCACUCAGCACUCACUUGCUACCAAUUCUAUUUAUUUCGGAAUUACAAGAUAGCGGGAAUCUCUCUGCAGGCUGGACUGGCAGGCUGUGGGGUGGGCGGGAC | 0.358 |
| GAGACAAGAUUGAGAAAGAGCCAUGUGGCUUGGCUCUAGAAACGUCAUUAUCAUUAGGACCAUCAGAUUUUAGAUUAAGCUGCUAUUGAAUUAAUAAAAUCCCAAUGAAG | 0.961 |
| GAAUUGCCAGUCCAACUUUUCCUGGCACUGGAAGAAAAAAAAUAAGUGUCCCACCCCUGGAGGGUUAAUCCCUAUCUCUUCCUUUUGACCCCUGACUUGUUCUGGCAAGG | 0.492 |
| AGCAGGCCGUGCGUGCGGACAGUCCUCAUUGCUGUGAGCGCAGUUACCACCUGGUGCCUCACUGUCAAACUGAACGAGGGGGUGUGGCCAUGGCCUGAGCCACUGUUCUG | 0.352 |
| UCACAUGGAAGGCGGCACAGAGGCAGCUGUGUGGGCUGCAGAUUUCCUGUGUGGGGUUCAGCGUAGAAAACGCACCUCCAUCCCGCCCUUCCCACAGCAUUCCUCCAUCU | 0.614 |
| UCAAGAACACAAACGUUUUACCCCCUAUUGUAUGCCUUUGCUGAGGGUAUGUCCUGCUCCUUUCCACCAGUGAUUUGUAUUAAGACAGCACUUAUAUUGUACAAUACUUC | 4.35 |
| GUUUUAAUCACAUUCACUUUACUUGAAAUUAUGUUGUUACACAACAAAUUGUGGGGCCUUCAAAUUGUUUUUCUCUUUUCAUAUUAAAAAUGGUCUUUCUGUGAACUAGC | 0.745 |
| AAGUUAUCUGUGACUAUUAUAUAGGGAUCACAAAAGUGUCACAUAUUAGAAUGCUGACCUUUCAUAUGGAUUAUUGUGAGUCAUCAGAGUUUAUUAUAACUUAUUGUUCA | 0.542 |
| UUGGGGAGAUAUUUGGGAGCAAACUUAUUUAGAUUUAGAGUAAACUUUUCAUUAUAGAGCAAGUAAAAACAGACAAAUGAAACAACCUAGUGUUUCACAUAAAAAUACUU | 0.656 |
| CACUUUGUUAGAUGUAAAAUAAACCACGGGCCUUCCACAUGGGGUGACCCCCGCCCUGUCCCUUUCAGUUUUGUCUGGGAGGGAGCACUAAAGCCUUUCCAGAGACUAUG | 0.24 |
| GAAGUACCCCUGGAUCAUGUCCGAGUUUUUGUCUUUCACUGUCUGAAUCAUGUUCCAGCUGCUUGACCCUACCGUGUGGGUUCAGAGCUCGUUUGGGCGUAACAACUAAG | 0.269 |
| GAGCCCAGCUUCCCCCAUGUACAACAGGCACUUCCUAAACUCGGUUAUGAGGCUUUCAAUCGUGGAAGCUCAGGAGGGAAUGGUCCUGAUAGUGACAUCUGGGACCCCAG | 0.386 |
